Assay results gathered from unrelated publications.
Lines come from different studies, so protocols differ. Values joined by “and” are separate records of one study, mostly repeats; a detail may differ. ± gives the spread as reported. Converted amounts (≈) assume the structure as drawn.

For `CC(C)(C)NCC(SS(=O)(=O)O)c1ccccc1` (stereo not shown), “mean female worms recovered” read 11.8 worms per mouse (Schistosoma mansoni; infected mice; 600 mg/kg single, dosed day 1, perfusion day 44).
For `COc1ccc(NC(=O)COc2cccc(OCC(C)C)c2)cc1`, the MIC50 was 16 µg/mL (≈ 48.6 µM) (Aspergillus fumigatus; microbial growth, broth dilution; MF5668).
`CC1(C)C(NC(=O)C(=NOC2(C(=O)O)CC2)c2csc(N)n2)C(=O)N1OS(=O)(=O)O` (stereo not shown) gave an MIC of 2 µg/mL (≈ 4.32 µM) (Klebsiella pneumoniae; 17-29, ESBL; compound alone).
The IC50 of `CC(=O)C(C)(c1c[nH]c2ccccc12)c1c[nH]c2ccccc12` is reported as > 50 µM (Parabacteroides distasonis; bacterial growth, inhibitor, OD600; anaerobic).
With `CC1C=CC=CC(C)C2C=CC3CC(C)(O)C(Cl)C(C)C3C2C(=O)C(Cl)(Cl)C(=O)C(C)C(=O)O1` (stereo not shown) the MIC was 0.05 µg/mL (≈ 0.094 µM) (Staphylococcus aureus; MRSA clinical isolate; resistant PEN/CIP/MXF).
For `C#CCO/N=C(\C(=O)N[C@@H]1C(=O)N(OS(=O)(=O)O)C1(C)C)c1csc(N)n1`, the MIC was 0.5 µg/mL (≈ 1.2 µM) (Serratia marcescens; agar dilution; ATCC 21074, susceptible).
`CCCOC(=O)N1c2cc(CNC)ccc2[C@H](NC(=O)C(=O)Nc2ccc(Cl)c(F)c2)[C@H]1CNC(=N)N` gave an IC50 of 0.28 µM (HIV-1; pseudovirus infection, Env pseudovirus neutralisation; TZM-bl, clade B T/F isolate d15_410_787).
`CC(C)CS(=O)(=O)N[C@H]1CC[C@H](Nc2ncc3c(N4CCOCC4)n[nH]c3n2)CC1` gave an EC50 of 0.368 µM (Leishmania donovani; parasite growth; THP-1; intracellular, amastigote).
For `Cc1ccc(S(=O)(=O)Nn2c3c(cc(-c4nc5ccccc5s4)c2=O)CCCCCC3)cc1`, “viral load reduction” read 30% (hepatitis C virus; qRT-PCR; Huh7.5, genotype 4; concentration not given).
`c1ccc2c([C+](c3c[nH]c4ccccc34)c3c[nH]c4ccccc34)c[nH]c2c1` gave an IC50 of 7.6 µM (Bacteroides fragilis; microbial growth, absorbance).
`NC(=O)CN1C(=O)C(O)(CC(=O)c2cccc(N)c2)c2ccccc21` (stereo not shown) has an IC50 of 47 ± 0.1 µM (Leishmania donovani; MTT; AG83 wild type promastigotes; 48 h).
For `N=C(N)NCCC[C@@H]1NC(=O)[C@H](CCCNC(=N)N)NC(=O)[C@@H](CCCNC(=N)N)NC(=O)[C@H](C(c2ccccc2)c2ccccc2)NC(=O)[C@H](C(c2ccccc2)c2ccccc2)NC(=O)[C@H](C(c2ccccc2)c2ccccc2)NC(=O)[C@H](CCCNC(=N)N)NC1=O`, the MIC was 2 µg/mL (≈ 1.54 µM) (Blastomyces dermatitidis; BD-3).
`c1ccc(CC(c2c[nH]c3ccccc23)c2c[nH]c3ccccc23)cc1` gave an IC50 of > 50 µM (Parabacteroides distasonis; bacterial growth, inhibitor, OD600; anaerobic).
The MIC of `N=C(N)NCCC[C@@H]1NC(=O)[C@H](CCCNC(=N)N)NC(=O)[C@@H](CCCNC(=N)N)NC(=O)[C@@H](CCCNC(=N)N)NC(=O)[C@@H](C(c2ccccc2)c2ccccc2)NC(=O)[C@@H](Cc2c[nH]c3ccccc23)NC(=O)[C@@H](C(c2ccccc2)c2ccccc2)NC1=O` is reported as 2 µg/mL (≈ 1.59 µM) (Blastomyces dermatitidis; BD-3).
`Cc1ccccc1/C=C/C(=O)N[C@@H](CO)C(=O)N[C@H](C(=O)N[C@H](Cc1ccccc1)C(=O)O)[C@@H](C)O`: MIC50 “inactive” (Mycobacterium avium; resazurin microtitre; 104; 4 days, 37 °C).
`Cc1cccc2c1N(C(=O)n1ccnn1)CC2` gave a germination rate of 17.3% (Arabidopsis thaliana; kai2 mutant; 10 µM).
`CNCc1ccc2c(c1)N(C(=O)OCc1c(F)c(F)c(F)c(F)c1F)[C@H](CNC(=N)N)[C@H]2NC(=O)C(=O)Nc1ccc(Cl)c(F)c1` gave an IC80 of 4.51 µM (HIV-1; pseudovirus infection, Env pseudovirus neutralisation; TZM-bl, clade G isolate C1_B5).
For `COC1C=COC2(C)Oc3c(C)c(O)c4c(c3C2=O)C2=NC3(CCN(CC(C)C)CC3)NC2=C(NC(=O)C(C)=CC=CC(C)C(O)C(C)C(O)C(C)C(OC(=O)Nc2cccnn2)C1C)C4=O` (stereo not shown), the IC50 was 0.044 µM (Mycobacteroides abscessus; intracellular growth, visual read; THP-1 derived macrophages, ATCC 19977).
For `C=C(NC(=O)c1csc(-c2nc3c(cc2O)-c2nc(cs2)C(=O)NC(C(C)O)C(=O)NC(=C(C)OC)c2nc(cs2)C(=O)NC2c4nc(cs4)C(=O)NC(COC(=O)c4c5c6c(cccc6n4O)COC(=O)C(OC4CC(C)(O)C(N(C)C)C(C)O4)C2OC5)c2nc-3cs2)n1)C(N)=O` (stereo not shown), the ED50 was 4.17 mg/kg (Streptococcus pneumoniae; ATCC 49619, immunocompromised mice, lung infection; 24 h, tid dosing).
`COc1ccccc1-c1n[nH]c2nc(NC3CCN(C(=O)Cc4ccc(F)cc4F)CC3)ncc12` gave an EC50 of 0.0251 µM (Leishmania donovani; parasite growth; amastigote).
Under “air sac lesion score”, `C=C[C@]1(C)C[C@@H](OC(=O)CSc2ccc(NC(=O)c3ccco3)cc2)[C@]2(C)[C@H](C)CC[C@]3(CCC(=O)[C@H]32)[C@@H](C)[C@@H]1O` is recorded as 1 and 2 and 0 (Mycoplasma gallisepticum; infected chickens; intramuscular, 60 mg/kg daily x3, scale 0 to 4; direction not given).
`CC(C)CC(c1c[nH]c2ccccc12)c1c[nH]c2ccccc12` has an IC50 of > 50 µM (Parabacteroides distasonis; bacterial growth, inhibitor, OD600; anaerobic).
The proliferation of `Cc1cc(C(=O)Nc2nc3cccc(C)c3n2[C@H]2CCCCN(C(=O)/C=C/CN(C)C)C2)ccn1` is reported as 100% (Trypanosoma brucei brucei; Lister 427; 5.56 µM, 0 h, kill kinetics).
The IC50 of `c1ccc2c(Cc3c[nH]c4ccccc34)c[nH]c2c1` is reported as > 50 µM (Parabacteroides distasonis; bacterial growth, inhibitor, OD600; anaerobic).
For `COC1C=COC2(C)Oc3c(C)c(O)c4c(c3C2=O)C2=NC3(CCN(CC(C)C)CC3)NC2=C(NC(=O)C(C)=CC=CC(C)C(O)C(C)C(O)C(C)C(OC(=O)Nc2cnccn2)C1C)C4=O` (stereo not shown), the IC90 was 0.33 µM (Mycobacteroides abscessus; intracellular growth, visual read; THP-1 derived macrophages, ATCC 19977).
For `O=c1c(-c2nc3ccccc3s2)cc2c(n1NS(=O)(=O)c1ccc(Cl)cc1)CCCCCC2`, “viral load reduction” read 56.7% (hepatitis C virus; qRT-PCR; Huh7.5, genotype 4; concentration not given).
`O=C1C(O)=C([C@H]2CC[C@H](c3ccc(Cl)cc3)CC2)C(=O)c2ccccc21` gave an EC50 of 2.07 µM (Toxoplasma gondii; bradyzoite growth; alkaline-induced bradyzoites).
Under “log2 fold change”, `FC(F)(F)c1cccc(CNc2nc(NC3CCN(Cc4ccccc4)CC3)c3nc[nH]c3n2)c1` is recorded as -0.444 (Cryptococcus neoformans; RNA-seq, item: SAC1 (CNAG_06080) mRNA; 48 µg/mL, 3 h; relative to: untreated wild type).
